Measurements from different studies.
Lines come from different studies, so protocols differ. Several values in a cell are separate wells, animals, samples, runs or records. Numbers after ± are the reported error. In brackets after ≈: the same amount, converted by molar mass.

`Cc1ccc(CN2C(=O)/C(=N\c3ccc(Cl)cc3Br)c3ccccc32)cc1` has a haemoglobin of 142 ± 4.82 g/L (mouse, blood; 150 mg/kg).
`CN1CCC[C@]1(C)/C=C/S(=O)(=O)NC(=O)Nc1c2c(cc3c1CC(O)C3)CCC2` (stereo partly shown) has an AUC(0-24) of 31.1 µg·h/mL (human, plasma; oral, 12.5 mg twice daily of parent drug, day 14, metabolite of dosed drug).
The compound remaining of `C#Cc1c(F)ccc2cc(O)cc(-c3ncc4c(N5CC6CCC(C5)N6C(=O)OC(C)OC(=O)c5ccc6ccccc6c5)nc(OC[C@@]56CCCN5C[C@H](F)C6)nc4c3F)c12` (stereo partly shown) is reported as 86.1% (chemical stability; simulated intestinal fluid; 1 µM, 30 min).
`C=CC(=O)Nc1ccc(OC)c(-c2c[nH]c3ncc(-c4cncc(C(=O)N(C)C)c4)cc23)c1` gave a hydrolytic half-life of over 24 h (HPLC; 50 µM, 37 °C, no lysine, followed to 24 h).
With `O=C(Nc1cnccc1-c1ccc([18F])nc1)c1ccnc(NC(=O)C2CC2)c1` the SUV was 0.045 (FVB/NJ mouse, both sexes, brain; intravenous, 40 min).
`CC[C@H](C)[C@H](NC(=O)[C@@H](NC(=O)[C@H](CCCCN)NC(=O)[C@@H](NC(=O)[C@@H]1CCCN1[C@@H]1CN(C(=O)[C@@H](NC(=O)[C@@H](NC(=O)[C@@H](NC(=O)[C@@H](NC(=O)[C@@H](NC(=O)[C@@H](N)CCCCN)C(C)C)C(C)C)C(C)C)[C@@H](C)CC)[C@@H](C)O)CC[C@H]1NS(=O)(=O)c1ccc(C)cc1)[C@@H](C)O)C(C)C)C(=O)N[C@@H](CC(C)C)C(=O)N[C@@H](Cc1c[nH]cn1)C(N)=O` has a beta-sheet content of 83% (circular dichroism; methanol; 125 µM, 20 °C).
For `Cc1nn(-c2nc3c(F)cc(F)cc3s2)c(O)c1C(c1ccc(C(F)(F)F)cc1)c1c(C)nn(-c2nc3c(F)cc(F)cc3s2)c1O`, “terminal volume of distribution (Vz, observed)” read 0.794 L/kg and 0.651 L/kg and 1.62 L/kg (ICR mouse, plasma; intravenous, 5 mg/kg).
`CN1CCC[C@]1(C)/C=C/S(=O)(=O)NC(=O)Nc1c2c(cc3c1CCC3O)CCC2` (stereo partly shown) has an AUC(0-24) of 676 µg·h/mL (human, plasma; oral, 50 mg twice daily of parent drug, day 14, metabolite of dosed drug).
With `Cc1nc(N)nc2c1C(=O)N[C@@H](c1ccc(F)cc1-c1cccc(O[11CH3])n1)C2` the SUV was 0.5 ± 0.01 (ex vivo biodistribution; mice, U87 subcutaneous xenograft, muscle; 60 min post-injection, baseline, vehicle pre-treatment).
`C=CC(=O)Nc1cc(Nc2nccc(-c3cn(C)c4ccccc34)n2)c(OC)cc1N(C)CCNC` has a recovery of 98.8% (storage stability; human plasma; 5 h, on ice, low QC level).
For `Cc1cc(-c2ccc(C(=O)[C@@H]3CCCC[C@H]3C(=O)Nc3cnn4c3C(=O)NCC4)cc2)[nH]n1`, “cumulative recovery of radioactivity” read 6.8% and 4.93% and 6.73% and 5.62% and 6.33% and 4.97% (human, urine; oral, 200 mg; baseline: dose).
For `[2H]C([2H])([18F])Oc1cc(C(=O)OCC2CCN(CCCC)CC2)ccc1N`, “washout from peak” read over 50% (PET; rhesus monkey, striatum; 60 min post injection).
`COC1CN([C@H]2CC[C@H]([C@@]3(C)Oc4c(Cl)cc(C(=O)NCc5c(SC)cc(C)[nH]c5=O)c(C)c4O3)CC2)C1` gave a Tmax of 1.33 h (female CB17 SCID mice, HT-1376 xenograft, plasma; 75 mg/kg, day 1).
`CCC1=[N+]2N=C(c3ccccc3)C(=O)O[B-]2(c2ccccc2)Oc2cc(OC)ccc21` (stereo not shown) — result for “hydrolysis activation energy”: 22 kcal/mol (UV/vis decay; aqueous buffer).
`N#Cc1ccnc(N2C(=O)CC[C@H]2C(=O)N(c2cncc(F)c2)[C@H](C(=O)NC2CC(F)(F)C2)c2ccccc2Cl)c1`: metabolic stability “stable” (dog liver microsomes).
Under “gastrointestinal adverse events”, `CC(C)(O)c1ncc([S@](N)(=O)=NC(=O)Nc2c3c(cc4c2CCC4)CCC3)s1` is recorded as 50% (healthy human; oral, 100 mg single dose, capsule formulation).
For `COc1ccc2c(c1)CCn1c[n+]3c(c1-2)-c1ccc(OC)cc1CC3`, “mean corpuscular haemoglobin” read 15.8 ± 0.42 pg (female NSG mice, blood; 6 mg/kg, day 7, 5 days per week).
For `CC[C@H](C)[C@@H]1NC(=O)[C@H](Cc2ccc(O)cc2)NC(=O)CCCSC[C@@H](C(=O)N(CC(=O)N[C@@H](CC(C)C)C(=O)NCC(N)=O)Cc2ccc(F)cc2)NC(=O)[C@H](CC(N)=O)NC(=O)[C@H](CCC(N)=O)NC1=O`, the drug-related headache was 33% (human; intranasal, 5 µg single dose).
For `CN(CCNCc1ccncc1O)CCNCc1ccncc1O`, “protonation constant logK2H” read 8.7 (potentiometric titration; aqueous KCl solution; 1 mM, 25 °C, 0.1 M KCl).
`COc1ccc(C([O-])=CC(=O)c2ccc(C(C)(C)C)cc2)cc1.[Ru+2].c1ccc(-c2cccc(-c3ccccn3)n2)nc1.c1cnccn1`: “photosubstitution quantum yield” 0.0025% (water; together with: 470 nm light).
The plasma concentration of `O=C(NS(=O)(=O)c1cccs1)c1cc2ccccc2n1Cc1ccc(Br)c2ccccc12` is reported as 2520 ng/mL (Sprague-Dawley rat, male, plasma; oral, 20 mL/kg, 0.25 h).
The plasma concentration of `Cc1noc(C)c1Cn1cc(N2C(=O)CN(Cc3cccc(O[C@@H]4O[C@H](C(=O)O)[C@@H](O)[C@H](O)[C@H]4O)c3)C2=O)cn1` is reported as 32 ng/mL (Sprague-Dawley rat, male; oral, 10 mg/kg of parent drug, 8 h).
`CCCCN1C(=O)c2cccc3c(NCCCCCCCCN4CCOCC4)ccc(c23)C1=O` has a fluorescence lifetime of 4.1 ns (water; pH 6.0).
Under “AUC(0-24) accumulation ratio”, `CN1CCC[C@]1(C)/C=C/S(=O)(=O)NC(=O)Nc1c2c(cc3c1C(O)CC3)CCC2` (stereo partly shown) is recorded as 1.8 (human, plasma; oral, 12.5 mg twice daily of parent drug, metabolite of dosed drug; baseline: day 14 over day 1).
The oral bioavailability of `C/C(N)=N/C(=N\S(=O)(=O)c1ccc(C(F)(F)F)cc1)N1C[C@H](c2ccccc2)C(c2ccc(Cl)cc2)=N1` is reported as 25.7% (Beagle dog, plasma; oral, 24 mg/kg).
For `CCCCN1C(=O)c2cccc3c(NCCCCCCCCCCN4CCOCC4)ccc(c23)C1=O`, the fluorescence lifetime was 9.8 ns (chloroform).
`O=C([O-])CN1CCN(CC(=O)[O-])CCN(CC(=O)NC[C@H]2CC[C@H](C(=O)N[C@H](Cc3cnc4ccccc4c3)C(=O)NCCCC[C@H](NC(=O)N[C@@H](CCC(=O)O)C(=O)O)C(=O)O)CC2)CCN(CC(=O)[O-])CC1.[64Cu+2]` has a tissue uptake of 17.8 %ID/g (ex vivo gamma counting; 22Rv1 tumour-bearing mice, tumor; intravenous, 0.74 MBq, 6 h post-injection).
`O=C(Nc1cnccc1-c1ccc([18F])cc1)c1ccnc(NC(=O)C2CC2)c1` gave an SUV of 10.4 (ex vivo gamma counting; GSK-3β transgenic mice, late-stage, liver; intravenous, 120 min, mean, P-gp inhibitor pretreatment, together with: tariquidar 15 mg/kg iv).
`CC(C)c1cnc(-c2cc(Cl)ccc2F)cc1Nc1ccncc1C(=O)NC(CO)CO` has a Tmax of 3 h (female C57BL/6 mice, plasma; oral, 30 mg/kg twice daily, day 7, MC-38 tumour-bearing).
`C=C(NC(=O)c1csc(-c2nc3c(cc2O)-c2nc(cs2)C(=O)NC(C(C)O)C(=O)NC(=C(C)OC)c2nc(cs2)C(=O)NC2c4nc(cs4)C(=O)NC(COC(=O)c4c5c6c(cccc6n4O)COC(=O)C(OC4CC(C)(O)C(N(C)C)C(C)O4)C2OC5)c2nc-3cs2)n1)C(N)=O` (stereo not shown) gave a Cmax of 12400 ng/mL (male cynomolgus monkey, plasma; intravenous, 3 mg/kg, single dose, infusion).
`COc1ccc(Nc2nc(Nc3ccc(OCCOCCOCC[18F])cc3)ncc2Br)cc1` has an uptake ratio of 1.06 (ICR mice, S180 tumour; intravenous, 370 kBq, 30 min; baseline: tumour over bone).
For `O=C(NC1CCCC1)c1ccnc(N2Cc3cn(Cc4ccc(F)cc4)nc3C2)n1`, the half-life was 9 min (metabolic stability; human, liver microsomes).
The tissue uptake of `O=C(NCC1OC2CCC=CCCC2O1)c1ccc([18F])nc1` (stereo not shown) is reported as 11.2 ± 1.7 %ID/g (healthy female BALB/c nude mice, liver; intravenous, 7.4 MBq per mouse, 2 min).
The tracer uptake of `[123I]c1ccc2nc(-c3ccc(-n4ccnn4)nc3)cn2c1` is reported as 0.051 %ID/g (male Wistar rat, bone; intravenous, 4 MBq, 6 h).
`CN1CCC[C@]1(C)/C=C/S(=O)(=O)NC(=O)Nc1c2c(cc3c1CCC3)CC=C2` gave an AUC(0-24) of 324 µg·h/mL (human, plasma; oral, 50 mg twice daily of parent drug, day 1, metabolite of dosed drug).
The intact complex of `CC(=O)N([O-])CCCCCNC(=O)CCC(=O)N([O-])CCCCCNC(=O)CCC(=O)N([O-])CCCCCN.[89Zr+4]` is reported as 88.2 ± 3.5% (radio-TLC; aqueous buffer; 3 d, pH 7.2, 37 °C, 89Zr-labelled complex, together with: FeCl3 10-fold excess).
For `O=S1(=O)CC2CCCCC2CS1` (stereo not shown), the solubility was 25.3 mM (≈ 5220 µg/mL) (phase solubility, NMR; water; 25 °C, together with: hydroxypropyl-β-cyclodextrin 209 mM).

For quick reference, copied from above:
`CCCCN1C(=O)c2cccc3c(NCCCCCCCCN4CCOCC4)ccc(c23)C1=O` has a fluorescence lifetime of 4.1 ns (water; pH 6.0).
Under “AUC(0-24) accumulation ratio”, `CN1CCC[C@]1(C)/C=C/S(=O)(=O)NC(=O)Nc1c2c(cc3c1C(O)CC3)CCC2` (stereo partly shown) is recorded as 1.8 (human, plasma; oral, 12.5 mg twice daily of parent drug, metabolite of dosed drug; baseline: day 14 over day 1).
The oral bioavailability of `C/C(N)=N/C(=N\S(=O)(=O)c1ccc(C(F)(F)F)cc1)N1C[C@H](c2ccccc2)C(c2ccc(Cl)cc2)=N1` is reported as 25.7% (Beagle dog, plasma; oral, 24 mg/kg).
For `CCCCN1C(=O)c2cccc3c(NCCCCCCCCCCN4CCOCC4)ccc(c23)C1=O`, the fluorescence lifetime was 9.8 ns (chloroform).
